{"data": "Results collected from several papers", "cell line": "MIA PaCa-2", "note": "Each line is one published result; not all experiments were run side by side."}
{"Structure (SMILES)": "Cc1ccc(C(C)C)cc1.O=C(N=P(c1ccccc1)(c1ccccc1)c1ccccc1)c1[c-]cccc1.[Cl-].[Ru+2]", "assay": "cell growth or viability, MTT", "setting": "24 h", "IC50 [µM]": 8.2}
{"Structure (SMILES)": "Nn1c(SCC(=O)N2CCC(=C3c4ncccc4CCc4cc(Cl)cc(Br)c43)CC2)nnc1-c1ccccc1", "assay": "cell growth or viability, SRB", "IC50 [µM]": 37}
{"Structure (SMILES)": "COC(=O)[C@H]1[C@H]2C[C@H]3O[C@@]4(CCN3C[C@H]2C[C@@H](OC(=O)c2cc(OC)c(OC)c(OC)c2)[C@@H]1OC)C(=O)Nc1cc(OC)c(Br)cc14", "assay": "cell growth or viability, crystal violet", "setting": "72 h", "IC50 [µM]": 21.2}
{"Structure (SMILES)": "C=C1CCC(O)C(C)=CCC2C1CC2(C)O (stereo not shown)", "assay": "cell growth or viability, CCK-8", "setting": "72 h", "IC50 [µM]": "> 50"}
{"Structure (SMILES)": "COC(=O)[C@@H](Cc1cn(Cc2ccccc2)nn1)NC(=O)OCC1c2ccccc2-c2ccccc21", "assay": "cell growth or viability, MTS", "setting": "72 h", "IC50 [µM]": 1.12}
{"Structure (SMILES)": "O=C1NC(c2ccc(N3CCOCC3)cc2)(c2ccsc2)CC(O)=C1Sc1ccccc1Cl (stereo not shown)", "assay": "lactate production, item: lactate in supernatant", "setting": "6 h", "IC50 [µM]": "> 2"}
{"Structure (SMILES)": "Cc1ccc(C(C)C)cc1.O=C(N=P(c1ccccc1)(c1ccccc1)c1ccccc1)c1ccccn1.[Cl-].[Cl-].[Ru+2]", "assay": "cell growth or viability, MTT", "setting": "24 h", "IC50 [µM]": 2.9}
{"Structure (SMILES)": "C=C1CC[C@@H]2O[C@@]2(C)CC[C@H]2[C@H]1C[C@]2(C)C(=O)/C=C/C(C)(O)CO (stereo partly shown)", "assay": "cell growth or viability, CCK-8", "setting": "72 h", "IC50 [µM]": 2.52}
{"Structure (SMILES)": "COc1cccc2c1C(=O)c1c(O)c3c(c(O)c1C2=O)CC(O)(C(CO)=NNC(=O)CCCCC(=O)NNC(=O)CCCc1ccc(I)cc1)CC3OC1CC(N)C(O)C(C)O1 (stereo not shown)", "assay": "cell growth or viability, resazurin", "setting": "72 h", "IC50 [µM]": 0.898}
{"Structure (SMILES)": "O=C(CN1CCC(c2noc3cc(F)ccc23)CC1)N1CCC(=C2c3ncccc3CCc3cc(Cl)cc(Br)c32)CC1", "assay": "cell growth or viability, SRB", "IC50 [µM]": 33}
{"Structure (SMILES)": "COC(=O)[C@@H](Cc1cn(Cc2ccc(C#N)cc2)nn1)NC(=O)OCC1c2ccccc2-c2ccccc21", "assay": "cell growth or viability, MTS", "setting": "72 h", "IC50 [µM]": 7.2}
{"Structure (SMILES)": "O=C(CSc1nc(-c2ccccc2)n[nH]1)N1CCC(=C2c3ncccc3CCc3cc(Cl)cc(Br)c32)CC1", "assay": "cell growth or viability, SRB", "IC50 [µM]": 42}
{"Structure (SMILES)": "Cc1ccc(C(C)C)cc1.[Cl-].[Cl-].[Ru+2].c1ccc(P(=Nc2cccc3cccnc23)(c2ccccc2)c2ccccc2)cc1", "assay": "cell growth or viability, MTT", "setting": "24 h", "IC50 [µM]": 7}
{"Structure (SMILES)": "COC(=O)[C@H]1[C@H]2C[C@H]3O[C@@]4(CCN3C[C@H]2C[C@@H](OC(=O)c2cc(OC)c(OC)c(OC)c2)[C@@H]1OC)C(=O)Nc1cc(OC)c(-c2ccccc2)cc14", "assay": "cell growth or viability, crystal violet", "setting": "72 h", "IC50 [µM]": 21.8}
{"Structure (SMILES)": "O=C(CN1CCN(c2nsc3ccccc23)CC1)N1CCC(=C2c3ncccc3CCc3cc(Cl)cc(Br)c32)CC1", "assay": "cell growth or viability, SRB", "IC50 [µM]": "< 15"}
{"Structure (SMILES)": "CCCCCCCCCCCCCCOC(=O)Nc1ccn([C@@H]2O[C@H](CO)[C@@H](O)C2(F)F)c(=O)n1", "assay": "cell growth or viability, MTT", "setting": "48 h", "IC50 [µM]": 4.37}
{"Structure (SMILES)": "O=C(N=P12CN3CN(CN(C3)C1)C2)c1cccc[c]1[Au]([Cl])[Cl]", "assay": "cell growth or viability, MTT", "setting": "24 h", "IC50 [µM]": "> 125"}
{"Structure (SMILES)": "COC(=O)[C@@H]1[C@@H](OC)[C@H](OC(=O)c2cc(OC)c(OC)c(OC)c2)C[C@@H]2CN3CC[C@]4(O[C@@H]3C(=O)[C@@H]21)C(=O)Nc1cc(OC)ccc14", "assay": "cell growth or viability, crystal violet", "setting": "72 h", "IC50 [µM]": 3.99}
{"Structure (SMILES)": "C1=CCCC=CCC1.F[P-](F)(F)(F)(F)F.[Pt+][c]1ccccc1P(=Nc1ccccc1)(c1ccccc1)c1ccccc1", "assay": "cell growth or viability, MTT", "setting": "24 h", "IC50 [µM]": 1.03}
{"Structure (SMILES)": "Nc1ccc(/C=C/C(=O)N2CCc3c(oc4c(-c5ccc(F)cc5)cc(-c5ccc(NC(=O)[C@@H]6CCCO6)nn5)cc34)C2)cn1", "assay": "cell growth or viability, CCK-8", "setting": "72 h", "IC50 [µM]": "~3"}
{"Structure (SMILES)": "C=C1CC(O)CC(C)=CCC2C1CC2(C)O (stereo not shown)", "assay": "cell growth or viability, CCK-8", "setting": "72 h", "IC50 [µM]": "> 50"}
{"Structure (SMILES)": "CCCCCCCCCCCCCCCCCC(=O)Nc1ccn(C2OC(CO)C(O)C2(F)F)c(=O)n1 (stereo not shown)", "assay": "cell growth or viability, resazurin", "setting": "48 h, 3D culture", "IC50 [µM]": 39.1}
{"note": "Repeated from above:"}
{"Structure (SMILES)": "Cc1ccc(C(C)C)cc1.O=C(N=P(c1ccccc1)(c1ccccc1)c1ccccc1)c1ccccn1.[Cl-].[Cl-].[Ru+2]", "assay": "cell growth or viability, MTT", "setting": "24 h", "IC50 [µM]": 2.9}
